Assay results of several laboratories.
Every numbered part comes from another study and shows a few of its results, in no order.

Sample 1
Target: Sal-like protein 4, full length isoform B (SALL4, Homo sapiens, UniProt Q9UJQ4-2, residues 1-616)
Technique: universal PBM
Molecule type: double-stranded DNA, one strand shown
Medium: in vitro
Tested at: not given
Setting: 8-mer, flanks averaged, mean of replicates
Reading: higher = stronger binding
For `CTTAGGAC`, the E-score was -0.116.
With `CGATTAAA` the E-score was 0.228.
`GGGATACA` has an E-score of -0.0454.
For `GAACACGC`, the E-score was -0.236.
For `TGTGGTAA`, the E-score was 0.0927.

Sample 2
Target: Histone acetyltransferase KAT6A, both winged helices, GST fusion (KAT6A, Homo sapiens, UniProt Q92794, residues 1-181)
Technique: protein binding microarray
Molecule type: double-stranded DNA, one strand shown
Medium: in vitro
Tested at: not given
Setting: 8-mer, flanks averaged, mean of 2 arrays, mostly near background
Relative to: not given
Reading: higher = stronger binding
Construct (chain): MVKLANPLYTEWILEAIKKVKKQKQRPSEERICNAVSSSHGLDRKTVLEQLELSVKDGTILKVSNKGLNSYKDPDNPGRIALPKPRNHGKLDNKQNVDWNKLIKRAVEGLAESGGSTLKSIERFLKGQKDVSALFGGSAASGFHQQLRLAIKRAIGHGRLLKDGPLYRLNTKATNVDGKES
`GTTCCGAA` has an E-score of 0.162.
With `ATACTGTC` the E-score was -0.116.
For `ACGGGCGC`, the E-score was 0.325.
`CAATGGCG` gave an E-score of 0.192.
`AAGTAAAG` gave an E-score of -0.065.
The E-score of `AAACATTC` is reported as -0.175.
The E-score of `ACAAGGAC` is reported as -0.165.

Sample 3
Target: Interferon regulatory factor 5, full length, phosphomimetic (IRF5, Homo sapiens, UniProt Q13568-2, residues 1-514, S451D/S453D/S456D/S462D)
Technique: protein-binding microarray
Molecule type: double-stranded DNA, one strand shown
Medium: in vitro
Tested at: 940 nM top
Setting: 60-bp whole probe
Added: salmon DNA 0.4 mg/ml
Relative to: random background probes
Reading: higher = stronger binding
Constant ends, left off below: GCCTAGCAC … GTCTTGATTCGCTTGACGCTGCTG
`TTCGATTCCAGTTTCGATTAGTGCTAG`: “fitted relative affinity” 9.14 z-score.
`TTAGGACTGCGTATCCTTTAGTGCTAG`: “fitted relative affinity” -0.264 z-score.
`CTCTTTCTCTGCTACCCTTTGGTGCTA`: “fitted relative affinity” 2.45 z-score.
For `GACGAACTGGGGTATCGATACGTGCTA`, “fitted relative affinity” read 3.33 z-score.
For `TTAGGTTTCGGACTGCGTTAGTGCTAG`, “fitted relative affinity” read 7.43 z-score.
`TTAGGTTTCGACTATCGGTAAGTGCTA` — result for “fitted relative affinity”: 9.59 z-score.
`CACACCCGGCTCCTCTGCCAGTGCTAG` — result for “fitted relative affinity”: -0.104 z-score.

Single results of other studies
`PhoQ, residues 284 288 289 292 302 303 TGYLSA` gave a fold induction of 7.28 (PhoP, residues 12 14 15 18 19 NQGLL (Escherichia coli, UniProt P23836); Sort-seq, measured: YFP reporter; E. coli; PhoQ-PhoP variant library, added: 10 µM Mg2+; relative to: high Mg2+ state, higher = stronger signaling).

Repeated from above (sample 2):
The E-score of `ACAAGGAC` is reported as -0.165.
With `ATACTGTC` the E-score was -0.116.
